Experimental data gathered from unrelated publications.
Every numbered part comes from another study and shows a few of its results, in no order.

Sample 1
Target: Interferon regulatory factor 7, full length, phosphomimetic (IRF7, Homo sapiens, UniProt Q92985, residues 1-503, S471D/S472D/S475D/S476D/S477D/S483D/S484D/S487D)
Technique: protein-binding microarray
Form: double-stranded DNA, one strand shown
Matrix: in vitro
Concentration: 2200 nM top
Setting: 60-bp whole probe
With: salmon DNA 0.4 mg/ml
Relative to: random background probes
Reading: higher = stronger binding
Target sequence (chain): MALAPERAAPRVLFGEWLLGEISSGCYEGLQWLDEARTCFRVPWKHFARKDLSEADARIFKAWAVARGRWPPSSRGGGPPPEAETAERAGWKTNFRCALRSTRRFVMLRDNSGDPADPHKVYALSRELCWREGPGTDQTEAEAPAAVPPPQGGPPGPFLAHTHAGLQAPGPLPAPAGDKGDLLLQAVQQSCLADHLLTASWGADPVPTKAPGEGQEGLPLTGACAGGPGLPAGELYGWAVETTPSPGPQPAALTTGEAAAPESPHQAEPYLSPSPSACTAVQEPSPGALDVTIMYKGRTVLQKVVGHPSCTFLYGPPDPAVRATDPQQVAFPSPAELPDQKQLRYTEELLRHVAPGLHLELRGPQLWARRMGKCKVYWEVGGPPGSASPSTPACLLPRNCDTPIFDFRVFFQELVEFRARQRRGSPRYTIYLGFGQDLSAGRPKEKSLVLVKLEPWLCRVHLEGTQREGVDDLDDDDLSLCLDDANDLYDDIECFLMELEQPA
| Sequence | fitted relative affinity |
| --- | --- |
| GCCTAGCACGGCGGACTGCTTATCCTGACGTGCTAGGTCTTGATTCGCTTGACGCTGCTG | -0.338 z-score |
| GCCTAGCACTTAGGTTTCGACTTTCGCTTAGTGCTAGTCTTGATTCGCTTGACGCTGCTG | 9.44 z-score |
| GCCTAGCACGACGGTTTCCGGACTGGGGACGTGCTAGTCTTGATTCGCTTGACGCTGCTG | 1.17 z-score |
| GCCTAGCACGACGGTTTCGGAGTGGGGACGTGCTAGGTCTTGATTCGCTTGACGCTGCTG | 2.77 z-score |

Sample 2
Target: Histone acetyltransferase KAT6A, winged helix 1, GST fusion (KAT6A, Homo sapiens, UniProt Q92794, residues 1-85)
Technique: protein binding microarray
Form: double-stranded DNA, one strand shown
Matrix: in vitro
Concentration: not given
Setting: 8-mer, flanks averaged, mean of 2 arrays, mostly near background
Relative to: not given
Reading: higher = stronger binding
Target sequence (chain): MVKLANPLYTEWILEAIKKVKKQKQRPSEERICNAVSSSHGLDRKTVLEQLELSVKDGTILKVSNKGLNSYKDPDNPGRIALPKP
| Sequence | E-score |
| --- | --- |
| AAGAGATA | -0.15 |
| CGGGCAGA | 0.22 |
| AGGAAACA | -0.135 |
| GCCTAGCA | -0.019 |

Sample 3
Target: Ras GTPase-activating protein-binding protein 1, full length (G3BP1, Homo sapiens, UniProt Q13283)
Sequence of UniProt Q13283 (whole entry, looked up): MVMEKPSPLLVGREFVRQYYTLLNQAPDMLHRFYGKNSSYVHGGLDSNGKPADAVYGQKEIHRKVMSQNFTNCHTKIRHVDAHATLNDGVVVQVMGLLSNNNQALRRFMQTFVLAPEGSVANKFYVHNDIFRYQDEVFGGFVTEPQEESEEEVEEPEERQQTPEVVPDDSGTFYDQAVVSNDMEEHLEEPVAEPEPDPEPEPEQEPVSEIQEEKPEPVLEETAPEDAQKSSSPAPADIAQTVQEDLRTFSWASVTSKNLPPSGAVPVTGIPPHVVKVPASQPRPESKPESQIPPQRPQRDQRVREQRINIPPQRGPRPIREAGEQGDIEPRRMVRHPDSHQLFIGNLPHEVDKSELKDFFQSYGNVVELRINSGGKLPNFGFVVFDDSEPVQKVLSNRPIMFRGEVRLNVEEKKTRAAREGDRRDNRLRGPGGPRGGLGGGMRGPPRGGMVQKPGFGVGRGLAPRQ
Technique: RNA Bind-n-Seq
Form: RNA
Matrix: in vitro
Concentration: 200 nM
Setting: whole 134-nt RNA, ends assumed
With: 150 mM KCl
Relative to: input library
Reading: higher = stronger binding
All sequences stand within: GGGAGUUCUACAGUCCGACGAUC … UGGAAUUCUCGGGUGUCAAGG
| Sequence | log2 enrichment |
| --- | --- |
| CCUGUGCUACACAUCGUAUGUACCGAAUCGGGGAAAAAAAGGGGAAAGGGGUUUUUGGGGAAAGUAUUAUGUUACGCCGUUCGGAUCUGC | 0.347 |
| CCUGUGCUACACAUCGUAUGUACCGAAUCGGGCCCCCCCGGCCCCCCCGGGCCCCCCCGGAAAGUAUUAUGUUACGCCGUUCGGAUCUGC | 0.0746 |
| UCAAGUCCUGUGCUACACAUCGUAUGUACCGAAUCGGAAAGGGGAAAGGAAAGGGAAAGUAUUAUGUUACGCCGUUCGGAUCUGCACUUC | -1.14 |
| UGGCCCUGGUGGCAUGCGGGGAGGAAGAGGGGGCCUCAUGGAUCGUGGUGGUCCCGGUGGAAUGUUCAGAGGUGGCCGUGGUGGAGACAG | 0.707 |
| CACAGACAACACGCACCCACACAGACACAGAGGGAAGGGGUUGGGAUGAGGACAGGGUGCACAGCAGGGCGGGGUAGGACCCCAGCCCCU | 1.67 |
| UCAAGUCCUGUGCUACACAUCGUAUGUACCGAAUCGGGCCCGGCCCGGCCCGGGGAAAGUAUUAUGUUACGCCGUUCGGAUCUGCACUUC | -0.947 |

Mixed results
| Substance | target | test | system | conditions | scale | endpoint | result |
| --- | --- | --- | --- | --- | --- | --- | --- |
| PhoQ, residues 284 288 289 292 302 303 AGCYAI | PhoP, residues 12 14 15 18 19 SGWQI (Escherichia coli, UniProt P23836) | Sort-seq, refers to: YFP reporter | E. coli | PhoQ-PhoP variant library, with: 10 µM Mg2+ | relative to: high Mg2+ state, higher = stronger signaling | fold induction | 1.74 |
